{"data": "Experimental data of several laboratories", "note": "Parts stem from different laboratories: compare values within a part only. Positions count from the first letter of the parent shown."}
{"data": "Sample 1", "target": "UDP-N-acetylglucosamine--peptide N-acetylglucosaminyltransferase 110 kDa subunit (OGT, Homo sapiens, UniProt O15294)", "observed": "binding", "method": "phage display NGS", "molecule type": "peptide", "notes": "panning round 2", "relative to": "input library", "UniProt O15294, sequence (whole entry, looked up)": "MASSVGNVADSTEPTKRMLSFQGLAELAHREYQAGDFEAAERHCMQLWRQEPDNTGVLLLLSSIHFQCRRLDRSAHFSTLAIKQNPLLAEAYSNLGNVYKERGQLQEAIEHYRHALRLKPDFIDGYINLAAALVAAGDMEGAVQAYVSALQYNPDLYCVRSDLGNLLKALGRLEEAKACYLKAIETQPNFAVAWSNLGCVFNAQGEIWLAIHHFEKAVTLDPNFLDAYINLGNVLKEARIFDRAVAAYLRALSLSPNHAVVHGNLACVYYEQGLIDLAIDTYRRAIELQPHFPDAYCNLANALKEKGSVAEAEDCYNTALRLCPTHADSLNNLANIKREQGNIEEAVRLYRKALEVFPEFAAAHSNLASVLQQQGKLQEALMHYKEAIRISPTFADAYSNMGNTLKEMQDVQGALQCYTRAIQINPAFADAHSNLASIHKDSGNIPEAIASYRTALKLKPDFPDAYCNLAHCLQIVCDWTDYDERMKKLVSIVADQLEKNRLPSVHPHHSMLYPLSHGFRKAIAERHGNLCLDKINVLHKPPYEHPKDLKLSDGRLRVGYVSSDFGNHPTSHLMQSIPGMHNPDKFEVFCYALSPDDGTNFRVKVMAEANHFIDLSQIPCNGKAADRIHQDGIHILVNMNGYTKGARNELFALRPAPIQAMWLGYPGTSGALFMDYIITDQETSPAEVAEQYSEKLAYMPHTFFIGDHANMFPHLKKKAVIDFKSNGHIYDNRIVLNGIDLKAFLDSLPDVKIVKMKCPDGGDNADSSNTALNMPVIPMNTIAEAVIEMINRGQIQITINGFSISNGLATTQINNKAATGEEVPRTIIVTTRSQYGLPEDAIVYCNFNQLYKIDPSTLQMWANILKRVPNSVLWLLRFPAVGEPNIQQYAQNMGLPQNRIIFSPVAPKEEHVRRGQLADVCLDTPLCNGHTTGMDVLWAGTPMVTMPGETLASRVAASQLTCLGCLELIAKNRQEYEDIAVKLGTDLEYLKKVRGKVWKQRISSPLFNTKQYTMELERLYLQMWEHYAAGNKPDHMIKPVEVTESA"}
{"Molecule": "QNQPRYFPAYQIVAQ", "minimum log2 enrichment ratio": 2.64}
{"Molecule": "VWPPQNHVHSEMMRH", "minimum log2 enrichment ratio": 2.16}
{"Molecule": "DQGMTKDTHHIHTHH", "minimum log2 enrichment ratio": 2.84}
{"Molecule": "HAMHSHDSDHMTPYR", "minimum log2 enrichment ratio": 2.55}
{"Molecule": "IPAPHQQGTHHGFIH", "minimum log2 enrichment ratio": 2.63}
{"Molecule": "YFEPKYEISFKYPHD", "minimum log2 enrichment ratio": 3.41}
{"Molecule": "GRFNPVYQMVWEKTV", "minimum log2 enrichment ratio": 3.6}
{"Molecule": "HPHNMMQHHGNRFDM", "minimum log2 enrichment ratio": 2.82}
{"Molecule": "SIKGAKPKYQIEYVF", "minimum log2 enrichment ratio": 2}
{"Molecule": "DWSHMRSHNHASFAH", "minimum log2 enrichment ratio": 2.64}
{"Molecule": "HQPWPVAQHSHVHHR", "minimum log2 enrichment ratio": 2.37}
{"Molecule": "FNFTPYYQIAPGIRS", "minimum log2 enrichment ratio": 2.88}
{"data": "Sample 2", "target": "TAR DNA-binding protein 43, full length, His tag (TARDBP, Homo sapiens, UniProt Q13148, residues 1-414)", "method": "RNA Bind-n-Seq", "molecule type": "RNA", "sample": "in vitro", "tested at": "20 nM", "notes": "6-mer, flanks averaged, single round", "added": "150 mM LiCl", "relative to": "input library", "direction": "higher = stronger binding"}
{"Strand": "AAUCUG", "6-mer enrichment (R)": 0.851}
{"Strand": "GAAACC", "6-mer enrichment (R)": 0.806}
{"Strand": "AGGUGC", "6-mer enrichment (R)": 1.05}
{"Strand": "CCGAGG", "6-mer enrichment (R)": 0.991}
{"Strand": "CUGCAU", "6-mer enrichment (R)": 0.904}
{"Strand": "UACCCG", "6-mer enrichment (R)": 0.921}
{"Strand": "AUAGUU", "6-mer enrichment (R)": 0.964}
{"Strand": "UCAUCG", "6-mer enrichment (R)": 0.82}
{"data": "Sample 3", "target": "Prothrombin, mature alpha-thrombin (F2, Homo sapiens, UniProt P00734)", "method": "aptamer microarray, sandwich", "molecule type": "DNA with 2'F-ANA", "sample": "in vitro", "tested at": "200 nM", "notes": "whole 15-mer aptamer, many near background", "added": "Cy3 exosite-II aptamer, 400 nM", "direction": "higher = stronger binding", "strand": "GGTTGGTGTGGTTGG"}
{"Modification": "2'F-ANA at 1 2 3 4 9 10 11 14 15", "mean fluorescence intensity": "50.1 a.u."}
{"Modification": "2'F-ANA at 1 2 3 4 5 9 12 13", "mean fluorescence intensity": "73.5 a.u."}
{"Modification": "2'F-ANA at 2 6 7 9 12 13 15", "mean fluorescence intensity": "449 a.u."}
{"Modification": "2'F-ANA at 1 6 8 9 10 15", "mean fluorescence intensity": "57.5 a.u."}
{"Modification": "2'F-ANA at 2 3 4 5 7 9 10 13 14", "mean fluorescence intensity": "49.7 a.u."}
{"Modification": "2'F-ANA at 1 2 5 9 10 12 15", "mean fluorescence intensity": "55.3 a.u."}
{"Modification": "2'F-ANA at 1 2 3 6 8 10 15", "mean fluorescence intensity": "65.7 a.u."}
{"Modification": "2'F-ANA at 1 3 6 9 12 13 15", "mean fluorescence intensity": "362 a.u."}
{"data": "Mixed results", "parent": "viral docking peptide; PGASRRLFGSSAD"}
{"Change": "PGASRRAFGSSAD [L7A]", "target": "CCNF, cyclin fold, Cln2 fusion (human)", "test": "yeast growth competition, sequencing", "test system": "yeast", "setting": "strong parent motif", "scale": "relative to: not given, higher = stronger binding", "quantity": "normalised enrichment score", "value": 0.778}
{"note": "A few entries again (sample 2):"}
{"Strand": "CUGCAU", "6-mer enrichment (R)": 0.904}
{"Strand": "CCGAGG", "6-mer enrichment (R)": 0.991}
{"Strand": "AGGUGC", "6-mer enrichment (R)": 1.05}
